Measured values pooled from the literature.
Protocols differ between the studies behind these lines. ± marks the error that the study gave.
Sequence of UniProt P48730 (whole entry, looked up): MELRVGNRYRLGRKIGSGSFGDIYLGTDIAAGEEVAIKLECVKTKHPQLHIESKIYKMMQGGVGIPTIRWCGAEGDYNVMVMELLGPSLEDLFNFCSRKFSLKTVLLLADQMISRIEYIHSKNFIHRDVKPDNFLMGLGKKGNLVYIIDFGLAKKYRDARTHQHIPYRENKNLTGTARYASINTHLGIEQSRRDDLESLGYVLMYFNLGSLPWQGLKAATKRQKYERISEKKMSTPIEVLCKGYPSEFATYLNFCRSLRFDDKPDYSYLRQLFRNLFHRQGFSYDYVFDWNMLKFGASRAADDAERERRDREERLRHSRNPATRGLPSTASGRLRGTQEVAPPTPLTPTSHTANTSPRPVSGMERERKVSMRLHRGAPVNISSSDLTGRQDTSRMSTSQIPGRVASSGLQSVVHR
Sequence of UniProt P27361 (whole entry, looked up): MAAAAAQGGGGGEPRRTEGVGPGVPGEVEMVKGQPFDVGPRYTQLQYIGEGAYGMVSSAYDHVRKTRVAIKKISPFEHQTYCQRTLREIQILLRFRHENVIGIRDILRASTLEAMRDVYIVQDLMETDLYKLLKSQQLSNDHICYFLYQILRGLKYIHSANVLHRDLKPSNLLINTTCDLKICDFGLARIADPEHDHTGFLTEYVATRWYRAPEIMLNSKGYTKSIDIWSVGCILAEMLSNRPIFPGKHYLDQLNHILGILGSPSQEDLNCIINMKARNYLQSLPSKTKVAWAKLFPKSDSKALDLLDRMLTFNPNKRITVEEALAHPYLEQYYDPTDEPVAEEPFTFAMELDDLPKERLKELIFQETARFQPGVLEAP
Sequence of UniProt P29371 (whole entry, looked up): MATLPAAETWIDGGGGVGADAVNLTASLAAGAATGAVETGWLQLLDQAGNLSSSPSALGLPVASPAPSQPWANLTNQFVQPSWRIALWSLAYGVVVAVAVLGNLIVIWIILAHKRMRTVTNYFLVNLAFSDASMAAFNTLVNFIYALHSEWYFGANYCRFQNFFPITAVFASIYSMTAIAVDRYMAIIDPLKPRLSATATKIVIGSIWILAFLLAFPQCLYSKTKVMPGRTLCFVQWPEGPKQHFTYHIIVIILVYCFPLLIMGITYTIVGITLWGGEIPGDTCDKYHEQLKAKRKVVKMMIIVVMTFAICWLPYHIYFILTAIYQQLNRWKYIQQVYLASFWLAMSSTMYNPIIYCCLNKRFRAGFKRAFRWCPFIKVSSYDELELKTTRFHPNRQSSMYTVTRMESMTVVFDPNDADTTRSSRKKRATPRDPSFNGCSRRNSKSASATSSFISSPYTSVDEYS
Sequence of UniProt P34981 (whole entry, looked up): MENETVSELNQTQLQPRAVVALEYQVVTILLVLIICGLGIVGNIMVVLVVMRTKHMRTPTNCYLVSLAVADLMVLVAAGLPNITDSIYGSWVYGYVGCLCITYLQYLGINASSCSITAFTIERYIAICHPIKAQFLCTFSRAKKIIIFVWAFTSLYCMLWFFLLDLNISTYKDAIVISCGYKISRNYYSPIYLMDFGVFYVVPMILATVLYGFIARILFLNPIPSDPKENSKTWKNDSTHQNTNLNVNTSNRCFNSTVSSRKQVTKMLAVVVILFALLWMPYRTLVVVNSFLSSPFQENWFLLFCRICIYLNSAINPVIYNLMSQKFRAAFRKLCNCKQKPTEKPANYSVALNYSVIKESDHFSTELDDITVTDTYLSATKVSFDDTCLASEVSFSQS
Sequence of UniProt P21554 (whole entry, looked up): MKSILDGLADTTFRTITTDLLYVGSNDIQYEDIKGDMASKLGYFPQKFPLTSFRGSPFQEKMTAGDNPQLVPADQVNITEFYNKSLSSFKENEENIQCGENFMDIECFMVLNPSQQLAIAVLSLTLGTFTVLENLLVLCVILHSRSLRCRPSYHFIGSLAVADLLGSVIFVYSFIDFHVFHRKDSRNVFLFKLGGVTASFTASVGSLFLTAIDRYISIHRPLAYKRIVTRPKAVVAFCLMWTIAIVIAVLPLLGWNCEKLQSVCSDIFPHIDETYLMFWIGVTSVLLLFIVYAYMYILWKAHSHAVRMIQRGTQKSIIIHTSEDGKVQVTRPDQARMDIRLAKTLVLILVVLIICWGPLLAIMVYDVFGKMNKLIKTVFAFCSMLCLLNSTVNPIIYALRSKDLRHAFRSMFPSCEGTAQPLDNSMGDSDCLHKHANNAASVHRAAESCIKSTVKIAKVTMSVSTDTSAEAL
Sequence of UniProt Q9UPE1 (whole entry, looked up): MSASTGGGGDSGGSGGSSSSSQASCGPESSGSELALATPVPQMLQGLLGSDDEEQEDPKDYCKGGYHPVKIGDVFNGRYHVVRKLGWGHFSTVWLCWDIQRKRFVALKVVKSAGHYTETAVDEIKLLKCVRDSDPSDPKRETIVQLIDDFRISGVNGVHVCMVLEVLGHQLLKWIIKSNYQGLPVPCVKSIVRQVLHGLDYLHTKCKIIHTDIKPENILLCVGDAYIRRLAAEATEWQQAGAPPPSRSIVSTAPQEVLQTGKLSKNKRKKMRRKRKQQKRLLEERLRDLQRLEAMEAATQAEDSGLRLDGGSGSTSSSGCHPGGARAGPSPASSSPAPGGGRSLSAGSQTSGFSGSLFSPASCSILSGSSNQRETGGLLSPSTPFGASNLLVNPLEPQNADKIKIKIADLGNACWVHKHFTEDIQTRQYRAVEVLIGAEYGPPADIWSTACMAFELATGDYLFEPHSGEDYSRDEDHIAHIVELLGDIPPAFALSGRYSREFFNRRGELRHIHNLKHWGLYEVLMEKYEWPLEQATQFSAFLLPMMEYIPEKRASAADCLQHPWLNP
Sequence of UniProt Q91ZH7 (whole entry, looked up): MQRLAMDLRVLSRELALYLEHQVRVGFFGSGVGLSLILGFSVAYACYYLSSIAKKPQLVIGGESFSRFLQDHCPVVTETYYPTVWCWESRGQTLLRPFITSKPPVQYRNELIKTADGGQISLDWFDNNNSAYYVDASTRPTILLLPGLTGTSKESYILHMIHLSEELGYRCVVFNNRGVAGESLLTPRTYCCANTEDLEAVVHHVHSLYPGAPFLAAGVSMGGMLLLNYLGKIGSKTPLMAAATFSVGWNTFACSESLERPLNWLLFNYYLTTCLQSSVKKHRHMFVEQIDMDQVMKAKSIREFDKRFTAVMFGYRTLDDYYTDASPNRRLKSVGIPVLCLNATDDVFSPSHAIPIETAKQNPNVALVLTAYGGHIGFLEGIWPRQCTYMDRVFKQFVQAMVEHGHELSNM
Sequence of UniProt P34972 (whole entry, unmodified, looked up): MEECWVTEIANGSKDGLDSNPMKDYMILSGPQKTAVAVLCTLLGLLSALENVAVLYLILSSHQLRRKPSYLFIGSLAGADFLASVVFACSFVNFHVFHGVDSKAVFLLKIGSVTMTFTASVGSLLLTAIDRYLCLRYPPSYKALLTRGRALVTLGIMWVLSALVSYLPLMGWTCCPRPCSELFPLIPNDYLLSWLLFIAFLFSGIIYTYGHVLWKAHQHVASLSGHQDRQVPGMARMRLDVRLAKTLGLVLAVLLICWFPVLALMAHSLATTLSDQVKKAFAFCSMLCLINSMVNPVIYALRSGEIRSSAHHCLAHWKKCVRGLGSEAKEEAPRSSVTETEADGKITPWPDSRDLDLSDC
Sequence of UniProt Q15349 (whole entry, looked up): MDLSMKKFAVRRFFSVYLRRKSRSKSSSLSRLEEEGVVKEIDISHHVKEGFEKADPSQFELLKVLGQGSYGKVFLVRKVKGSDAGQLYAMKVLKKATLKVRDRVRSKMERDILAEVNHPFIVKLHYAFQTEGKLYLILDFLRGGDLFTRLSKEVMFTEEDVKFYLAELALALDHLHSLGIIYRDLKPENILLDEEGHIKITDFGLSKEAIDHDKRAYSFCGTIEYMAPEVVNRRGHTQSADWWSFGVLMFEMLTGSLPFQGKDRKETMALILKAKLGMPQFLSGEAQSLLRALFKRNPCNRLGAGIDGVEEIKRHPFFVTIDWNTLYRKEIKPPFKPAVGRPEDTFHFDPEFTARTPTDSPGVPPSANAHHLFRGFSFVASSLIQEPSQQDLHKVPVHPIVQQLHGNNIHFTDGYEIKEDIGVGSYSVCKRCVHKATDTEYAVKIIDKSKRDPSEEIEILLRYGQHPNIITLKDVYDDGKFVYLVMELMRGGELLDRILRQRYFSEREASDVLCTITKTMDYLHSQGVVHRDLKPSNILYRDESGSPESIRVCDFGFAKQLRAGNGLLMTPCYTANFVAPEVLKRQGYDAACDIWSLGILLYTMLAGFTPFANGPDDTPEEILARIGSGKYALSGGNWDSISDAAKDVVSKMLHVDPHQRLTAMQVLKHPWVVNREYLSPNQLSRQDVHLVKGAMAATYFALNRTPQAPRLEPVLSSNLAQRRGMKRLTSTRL

Nc1ccc(/C=C/C(=O)N2CCc3c(oc4c(-c5ccc(F)cc5)cc(-c5ccc(C(=O)N6CCC(F)(F)CC6)cn5)cc34)C2)cn1  remaining binding (SRSF protein kinase 3 (SRPK3, Homo sapiens, UniProt Q9UPE1); binding, competition with immobilised ligand; 1 µM): 100%
CS(C)(=O)=Nc1ccc(-c2ccc(-c3nc4cc(O[C@@H]5CO[C@H]6[C@@H]5OC[C@H]6O)[nH]c4cc3F)cc2)cc1  inhibition (PCP site; binding; 10 µM): 9%
CC(C)(C)C(=O)OCOP(=O)(OCOC(=O)C(C)(C)C)C1CCCN(O)C1=O (stereo not shown)  log TGI (HOP-92): -4.29 log M
N[C@H](C(=O)N1CCCC1)C1CCN(c2nccc3c(-c4ncc(Cl)cc4Cl)cccc23)CC1  response (Thyrotropin-releasing hormone receptor (TRHR, Homo sapiens, UniProt P34981); functional response, agonist; 10 µM): 4%
CC(C)[C@H]1NC(=O)C[C@H]2/C=C/CCSSC[C@@H](NC1=O)C(=O)N[C@H](Cc1cccc3ccccc13)C(=O)NCC(=O)O2  inhibition (Ribosomal protein S6 kinase alpha-2 (RPS6KA2, Homo sapiens, UniProt Q15349); 10 µM): -1.6%
CC[C@H](C)[C@@H]1NC(=O)CNC(=O)[C@@H]2Cc3c([nH]c4cc(O)ccc34)[S@+]([O-])C[C@H](NC(=O)CNC1=O)C(=O)N[C@@H](CC(N)=O)C(=O)N1C[C@H](O)C[C@H]1C(=O)N[C@@H]([C@@H](C)[C@@H](O)CO)C(=O)N2  transcription activity (DNA-directed RNA polymerase II subunit RPB1 (Homo sapiens, UniProt P24928); HeLa nuclear extract; 10.00 nM, 60 min): 48 ± 10%
CN(C)[C@H]1C[C@@]23CC[C@@]4(O2)C(=CC[C@]2(C)[C@@H](c5ccc6ccncc6c5)CC[C@H]24)C=C3[C@@H](O)[C@@H]1O  inhibition (Mitogen-activated protein kinase 3 (MAPK3, Homo sapiens, UniProt P27361); ATP probe labelling, inhibitor, KiNativ profiling; 0.1 µM): -0.5%
CC(C)CC(O)(CC(C)C)c1cn(C(=O)N2CCCC2)nn1  activity ratio-of-ratios (Phospholipase ABHD3 (Abhd3, Mus musculus, UniProt Q91ZH7); probe labelling, inhibitor, refers to: Abhd3; mouse, brain; i.p., 0.8 mg/kg, 4 h, protein level; reference: treated over vehicle mice, lower = stronger inhibition): 0.6
Cc1sc2c(c1C)C(c1ccc(Cl)cc1)=NC(CC(=O)OC(C)(C)C)c1nnc(C)n1-2 (stereo not shown)  inhibition (Neuromedin-K receptor (TACR3, Homo sapiens, UniProt P29371); ligand displacement, radioligand; 1 µM): -23%
CC[C@H](C)[C@H](NC(=O)[C@H](CO)NC(=O)[C@H](Cc1ccc(O)cc1)NC(=O)[C@H](Cc1ccc(O)cc1)NC(=O)[C@H](CC(N)=O)NC(=O)CNC(=O)[C@H](CO)NC(=O)[C@H](Cc1ccc(O)cc1)NC(=O)[C@H](CO)NC(=O)[C@H](CO)NC(=O)[C@H](CC(N)=O)NC(=O)COCCOCCNC(=O)CN1CCN(CC(=O)O)CCN(CC(=O)O)CCN(CC(=O)O)CC1)C(=O)N[C@@H](CC(C)C)C(N)=O [copper-64 labelled]  tumour uptake (dynamic PET; mouse, tamoxifen-induced PDAC, tumor; intravenous, 0.1 µg/mouse, 12.5 min): 10.5 %ID/mL
COc1ccccc1-c1n[nH]c2nc(NC3CCN(C(=O)Cc4ccc(F)cc4F)CC3)ncc12  relative abundance (bead binding, competition bead pull-down, refers to: LINJ.36.2130; Leishmania donovani extract; 10 µM; reference: vehicle): 0.9
CCCCCn1cc(C(=O)c2cccc3c2CC(C)(C)C3)c2ccccc21  bias factor (ΔΔlog(Emax/EC50)) (Cannabinoid receptor 2 (CNR2, Homo sapiens, UniProt P34972); agonist, BRET; reference: Gαi1 over β-arrestin 2, reference agonist): -0.64
COc1ccccc1-c1n[nH]c2nc(N[C@H]3CC[C@H](NS(=O)(=O)CC(C)C)CC3)ncc12  relative abundance (bead binding, competition bead pull-down, refers to: LINJ.30.3560; Leishmania donovani extract; 10 µM; reference: vehicle): 1.16
O=C1NC(=O)c2c1c1cc(F)c[n+]3c1c1c2c2cc(O)ccc2[n]1[Ru-4]312([N]=C=S)[S+]3CC[S+]1CC[S+]2CC3 (stereo not shown)  remaining activity (Casein kinase I isoform delta (CSNK1D, Homo sapiens, UniProt P48730); enzyme activity; 100 nM, human enzyme, added: 10 µM ATP; reference: untreated): 2%
Cc1ccc2c(C(C[N+](=O)[O-])c3cccs3)c(-c3ccccc3)[nH]c2c1 (stereo not shown)  Emax (Cannabinoid receptor 1, with GoB (CNR1, Homo sapiens, UniProt P21554); GoB dissociation, agonist, BRET): 60.1 ± 4.56%
O=C1NC2(CC2)COc2ncc(F)cc2[C@H]2COCCN2c2ccn3ncc1c3n2  serum triglycerides (Sprague-Dawley rat, female, serum; oral, 20 mg/kg/day, end of recovery, 4-week subacute toxicity): 0.4 ± 0.1 mmol/L

Some of these lines once more:
O=C1NC2(CC2)COc2ncc(F)cc2[C@H]2COCCN2c2ccn3ncc1c3n2  serum triglycerides (Sprague-Dawley rat, female, serum; oral, 20 mg/kg/day, end of recovery, 4-week subacute toxicity): 0.4 ± 0.1 mmol/L
